Measurements gathered from unrelated publications.
Each line is one published result; not all experiments were run side by side. Values joined by “and” are separate records of one study, mostly repeats; a detail may differ. ± marks the error that the study gave.
Sodium- and chloride-dependent glycine transporter 2: Sodium- and chloride-dependent glycine transporter 2 (Homo sapiens, UniProt Q9Y345)
Chain of UniProt Q9Y345 (whole entry, looked up): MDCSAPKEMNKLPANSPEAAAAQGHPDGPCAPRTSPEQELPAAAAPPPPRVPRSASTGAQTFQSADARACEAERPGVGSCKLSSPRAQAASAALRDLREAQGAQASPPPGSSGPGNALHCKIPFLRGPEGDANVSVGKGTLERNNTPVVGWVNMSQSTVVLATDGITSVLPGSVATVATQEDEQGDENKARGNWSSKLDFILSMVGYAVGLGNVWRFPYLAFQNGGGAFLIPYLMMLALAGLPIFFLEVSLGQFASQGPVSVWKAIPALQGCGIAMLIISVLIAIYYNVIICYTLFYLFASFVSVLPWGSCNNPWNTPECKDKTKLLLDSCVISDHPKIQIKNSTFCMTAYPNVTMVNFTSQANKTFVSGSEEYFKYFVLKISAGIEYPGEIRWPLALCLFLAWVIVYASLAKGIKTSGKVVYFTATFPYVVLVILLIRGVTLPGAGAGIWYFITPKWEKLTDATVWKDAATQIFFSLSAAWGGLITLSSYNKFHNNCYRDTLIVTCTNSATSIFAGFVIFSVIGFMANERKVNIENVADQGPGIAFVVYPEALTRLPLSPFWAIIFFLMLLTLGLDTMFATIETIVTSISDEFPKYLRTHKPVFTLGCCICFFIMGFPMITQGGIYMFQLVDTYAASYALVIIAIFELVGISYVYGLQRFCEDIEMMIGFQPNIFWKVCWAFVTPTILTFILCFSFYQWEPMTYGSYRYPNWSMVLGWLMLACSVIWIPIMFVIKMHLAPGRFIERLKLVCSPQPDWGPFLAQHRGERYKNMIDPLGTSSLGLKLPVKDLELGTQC
CA12: Carbonic anhydrase 12 (CA12, Homo sapiens, UniProt O43570)
Chain of UniProt O43570 (whole entry, looked up): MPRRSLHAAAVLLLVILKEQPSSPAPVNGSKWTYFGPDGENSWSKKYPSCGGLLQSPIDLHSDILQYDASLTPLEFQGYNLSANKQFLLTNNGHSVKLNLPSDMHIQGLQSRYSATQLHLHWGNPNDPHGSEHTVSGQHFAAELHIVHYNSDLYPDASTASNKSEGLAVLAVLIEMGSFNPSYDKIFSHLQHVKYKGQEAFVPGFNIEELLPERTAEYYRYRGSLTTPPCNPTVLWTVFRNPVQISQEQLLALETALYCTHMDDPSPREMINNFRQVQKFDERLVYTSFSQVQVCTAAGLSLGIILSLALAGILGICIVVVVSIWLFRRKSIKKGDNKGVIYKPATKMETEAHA
Gria1/Gria2: Glutamate receptor AMPA 1/2 (Gria1/Gria2, Rattus norvegicus, UniProt P19490+P19491)
Chain of UniProt P19491 (whole entry, looked up): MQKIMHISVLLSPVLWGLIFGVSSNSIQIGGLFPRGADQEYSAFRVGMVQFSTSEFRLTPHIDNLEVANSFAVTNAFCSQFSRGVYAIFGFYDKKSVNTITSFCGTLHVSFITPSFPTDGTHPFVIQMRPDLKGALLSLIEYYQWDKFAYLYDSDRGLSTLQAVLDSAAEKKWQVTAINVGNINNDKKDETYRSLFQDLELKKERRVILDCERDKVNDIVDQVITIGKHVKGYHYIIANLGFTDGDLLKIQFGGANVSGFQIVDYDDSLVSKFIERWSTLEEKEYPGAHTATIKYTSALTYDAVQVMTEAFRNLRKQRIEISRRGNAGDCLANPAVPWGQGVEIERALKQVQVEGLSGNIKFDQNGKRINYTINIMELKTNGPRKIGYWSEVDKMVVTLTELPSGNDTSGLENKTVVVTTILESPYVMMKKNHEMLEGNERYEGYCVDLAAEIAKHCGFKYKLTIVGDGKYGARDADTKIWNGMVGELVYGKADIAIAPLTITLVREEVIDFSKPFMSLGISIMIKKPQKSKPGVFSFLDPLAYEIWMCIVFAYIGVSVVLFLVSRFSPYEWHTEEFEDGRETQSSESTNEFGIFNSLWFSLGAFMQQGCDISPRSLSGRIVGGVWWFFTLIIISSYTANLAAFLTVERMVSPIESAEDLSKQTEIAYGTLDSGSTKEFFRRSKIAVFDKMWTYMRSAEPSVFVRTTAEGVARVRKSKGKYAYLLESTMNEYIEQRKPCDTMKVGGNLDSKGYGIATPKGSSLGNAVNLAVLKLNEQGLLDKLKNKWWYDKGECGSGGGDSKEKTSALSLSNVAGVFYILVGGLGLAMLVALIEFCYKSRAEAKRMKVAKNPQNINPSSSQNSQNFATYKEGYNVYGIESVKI
Chain of UniProt Q13148 (whole entry, looked up): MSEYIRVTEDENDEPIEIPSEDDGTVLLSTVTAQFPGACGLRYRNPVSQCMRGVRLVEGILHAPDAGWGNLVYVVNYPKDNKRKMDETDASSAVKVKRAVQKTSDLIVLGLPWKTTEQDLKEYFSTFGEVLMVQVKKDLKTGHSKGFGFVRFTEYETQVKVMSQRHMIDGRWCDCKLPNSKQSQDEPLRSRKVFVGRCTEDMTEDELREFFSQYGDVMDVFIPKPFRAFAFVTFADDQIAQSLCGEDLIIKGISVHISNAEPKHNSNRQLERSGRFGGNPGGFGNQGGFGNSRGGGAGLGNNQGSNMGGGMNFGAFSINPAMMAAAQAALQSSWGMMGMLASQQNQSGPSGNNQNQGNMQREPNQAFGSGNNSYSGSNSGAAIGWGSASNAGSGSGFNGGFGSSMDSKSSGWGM
Chain of UniProt P19490 (whole entry, looked up): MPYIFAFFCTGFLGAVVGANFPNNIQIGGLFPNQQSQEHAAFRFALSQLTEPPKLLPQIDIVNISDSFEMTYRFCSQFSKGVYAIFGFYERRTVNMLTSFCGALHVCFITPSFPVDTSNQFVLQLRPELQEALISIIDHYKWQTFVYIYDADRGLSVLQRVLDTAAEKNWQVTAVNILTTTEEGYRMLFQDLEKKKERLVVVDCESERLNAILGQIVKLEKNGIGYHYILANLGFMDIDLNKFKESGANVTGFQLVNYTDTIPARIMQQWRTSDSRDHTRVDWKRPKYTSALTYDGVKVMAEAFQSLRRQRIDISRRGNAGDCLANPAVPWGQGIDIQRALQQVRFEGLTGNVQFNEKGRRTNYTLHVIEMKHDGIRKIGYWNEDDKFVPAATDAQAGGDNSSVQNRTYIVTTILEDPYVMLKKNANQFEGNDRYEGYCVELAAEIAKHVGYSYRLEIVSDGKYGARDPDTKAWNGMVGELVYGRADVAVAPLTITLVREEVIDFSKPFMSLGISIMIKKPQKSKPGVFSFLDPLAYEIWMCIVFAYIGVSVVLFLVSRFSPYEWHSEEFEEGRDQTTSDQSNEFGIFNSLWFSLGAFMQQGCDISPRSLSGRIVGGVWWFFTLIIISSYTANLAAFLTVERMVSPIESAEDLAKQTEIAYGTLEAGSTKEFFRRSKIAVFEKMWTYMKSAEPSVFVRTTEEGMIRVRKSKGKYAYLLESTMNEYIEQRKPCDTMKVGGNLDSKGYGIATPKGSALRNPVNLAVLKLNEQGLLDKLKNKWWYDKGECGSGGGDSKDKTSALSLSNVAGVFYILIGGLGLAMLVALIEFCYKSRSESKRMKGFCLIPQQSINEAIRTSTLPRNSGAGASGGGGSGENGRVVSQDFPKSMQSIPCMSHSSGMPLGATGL
Chain of UniProt Q7Z5P4 (whole entry, looked up): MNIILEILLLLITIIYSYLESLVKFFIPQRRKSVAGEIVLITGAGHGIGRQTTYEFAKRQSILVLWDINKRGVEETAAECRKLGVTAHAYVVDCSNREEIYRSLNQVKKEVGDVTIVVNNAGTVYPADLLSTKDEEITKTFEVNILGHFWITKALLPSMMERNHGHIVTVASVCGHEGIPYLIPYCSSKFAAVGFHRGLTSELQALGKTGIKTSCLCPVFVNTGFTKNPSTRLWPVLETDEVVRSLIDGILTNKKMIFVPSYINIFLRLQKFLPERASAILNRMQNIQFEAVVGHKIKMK
Chain of UniProt P04062 (whole entry, unmodified, looked up): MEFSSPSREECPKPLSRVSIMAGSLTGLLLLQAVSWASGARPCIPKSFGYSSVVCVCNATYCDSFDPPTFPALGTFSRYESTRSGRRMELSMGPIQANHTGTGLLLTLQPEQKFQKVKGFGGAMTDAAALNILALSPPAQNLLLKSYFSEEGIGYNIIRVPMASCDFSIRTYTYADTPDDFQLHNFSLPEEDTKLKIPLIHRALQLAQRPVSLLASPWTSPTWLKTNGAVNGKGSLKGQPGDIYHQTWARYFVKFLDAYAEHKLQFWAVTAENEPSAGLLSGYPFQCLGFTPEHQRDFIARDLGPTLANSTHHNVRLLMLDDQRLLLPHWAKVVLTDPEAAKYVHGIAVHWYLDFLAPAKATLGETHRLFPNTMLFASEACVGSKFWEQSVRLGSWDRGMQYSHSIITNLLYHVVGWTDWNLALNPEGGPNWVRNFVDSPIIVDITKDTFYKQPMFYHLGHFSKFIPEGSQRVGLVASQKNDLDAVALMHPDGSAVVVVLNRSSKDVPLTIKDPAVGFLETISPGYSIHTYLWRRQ
Chain of UniProt P68104 (whole entry, looked up): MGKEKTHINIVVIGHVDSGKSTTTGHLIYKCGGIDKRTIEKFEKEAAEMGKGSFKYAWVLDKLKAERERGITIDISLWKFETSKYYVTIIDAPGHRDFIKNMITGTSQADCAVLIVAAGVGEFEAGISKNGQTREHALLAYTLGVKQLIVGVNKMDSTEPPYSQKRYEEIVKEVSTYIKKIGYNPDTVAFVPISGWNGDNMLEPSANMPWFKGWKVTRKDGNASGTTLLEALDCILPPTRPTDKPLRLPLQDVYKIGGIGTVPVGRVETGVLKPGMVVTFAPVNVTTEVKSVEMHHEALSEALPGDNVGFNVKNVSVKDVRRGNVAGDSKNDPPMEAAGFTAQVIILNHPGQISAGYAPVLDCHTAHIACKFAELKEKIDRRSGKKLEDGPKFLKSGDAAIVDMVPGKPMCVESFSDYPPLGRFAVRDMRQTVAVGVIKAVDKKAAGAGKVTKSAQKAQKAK
Chain of UniProt Q8WYJ6 (whole entry, looked up): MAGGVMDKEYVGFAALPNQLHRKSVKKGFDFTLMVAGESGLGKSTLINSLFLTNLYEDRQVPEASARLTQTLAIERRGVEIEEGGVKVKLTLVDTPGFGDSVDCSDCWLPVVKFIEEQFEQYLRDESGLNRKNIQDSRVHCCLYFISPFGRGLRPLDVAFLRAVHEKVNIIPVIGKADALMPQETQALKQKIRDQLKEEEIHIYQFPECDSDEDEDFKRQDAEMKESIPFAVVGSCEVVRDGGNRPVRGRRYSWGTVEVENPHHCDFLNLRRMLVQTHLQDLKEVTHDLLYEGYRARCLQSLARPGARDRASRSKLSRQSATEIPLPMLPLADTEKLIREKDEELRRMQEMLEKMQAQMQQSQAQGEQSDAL

SMILES	tested on	assay	test system	setting	how to read	endpoint	result
CC(=O)C12NC(C)(C)CC1(C)C(=O)C1=C2c2c(c3c4n2C(C)(C)CC2=C4C4(CC(C)(C)NC(C)(C4)C2=O)CC3(C)C)C(=O)C(C)(C)N1 (single isomer, unassigned; (+))	TRPM3 (Homo sapiens, UniProt Q9HCF6)		HEK293T	10 µM		agonist activity	2.65 ± 0.01%
O=C(NC1CCN(Cc2ccccc2)CC1)c1ccc(OCc2ccccc2)cc1	Sodium- and chloride-dependent glycine transporter 2	MS binding competition		10 µM		remaining specific binding	23.8 ± 1.3%
CC(=O)c1cnc(NS(=O)(=O)c2ccc(Cl)c(Cl)c2)nc1	17-beta-hydroxysteroid dehydrogenase 13 (Homo sapiens, UniProt Q7Z5P4)	enzyme activity	human hepatocytes, scramble siRNA, culture medium	48 h	reference: scramble siRNA control	oxidized product ratio	0.0791 and 0.0984 and 0.0816 and 0.0926
COc1ccc(C(=O)c2c(C(=O)NCCCN(C)C)oc3ccc(Cl)cc3c2=O)cc1OC	GHSR (Homo sapiens, UniProt Q92847)	endosomal trafficking, agonist, bystander BRET 2xFYVE-Venus		5 min, unit not given	reference: baseline	Emax (net BRET)	0.019 ± 0.006
COc1cc2nc(Cl)nc(Nc3ccc(Oc4ccccc4)cc3)c2cc1OC	SMUG1 (Homo sapiens, UniProt Q53HV7)	enzyme activity, activator, fluorescence		20 µM	reference: control	activity	1700 ± 900%
N#C[Se]CCCCCCOc1ccc2c(-c3ccccc3)cc(=O)oc2c1	CA12	stopped-flow CO2 hydration			reference: Ki CA I over Ki CA XII	selectivity ratio	> 609
Cn1c(=O)n(C2CCC(=O)NC2=O)c2ccc(C3CCN(CC(=O)Nc4cccc(CS(=O)(=O)N5CC[C@H](Nc6cccc(-c7sc(C(=O)O)c(OCC(=O)O)c7Cl)c6)CC5(C)C)c4)CC3)cc21 (stereo partly drawn)	PTPN2 (Homo sapiens, UniProt P17706, E41K/R35E/R43E)	degrader, bio-layer interferometry		1000 nM	higher = more binding	BLI binding response	0.633 a.u.
CCCCCCCCCCCCC/C=C/C=O	Isoleucine--tRNA ligase, cytoplasmic (Homo sapiens, UniProt P41252)	competitive isoTOP-ABPP, item: IARS cysteine peptide	Ramos soluble proteome	100 µM, added: iodoacetamide probe	reference: DMSO over compound-treated, higher = stronger cysteine blockade	isoTOP-ABPP competition ratio	1
Cc1cccnc1-c1ccc(C(N)=O)cc1	Uridine nucleoside ribohydrolase (Trichomonas vaginalis, UniProt A2FTT0)	enzyme activity, 19F NMR		200 µM, 1-fold dilution		inhibition after jump dilution	60%
CC1CCC2C(C)(C)C(O)CCC2(C)C12Cc1c(O)cc(CO)c(C=O)c1O2 (stereo not drawn)	StaI′ Stachybotrys chartarum	substrate		30 min, pH 7.5, 40 °C		Km	641 µM
COCCOc1cc2ncnc(Nc3cccc(-c4cn(Cc5ccc(S(N)(=O)=O)cc5)nn4)c3)c2cc1OCCOC	CA12	stopped-flow CO2 hydration			reference: Ki hCA VI over Ki hCA XII	selectivity ratio	8.55
C#CCOC(=O)[C@@]1(C)C=C(C(=O)OC(C)(C)C)C(=O)CC1	MAPK8 (Homo sapiens, UniProt P45983)	D-peptide binding, inhibitor, FP peptide displacement		0.7812 µM	lower is stronger displacement	fraction bound	0.975
N[C@H]1CC[C@H](Nc2nccc(-c3cccnc3Oc3ccc(NC(=O)NC4CC4)c4ccccc34)n2)CC1	PHKA2 (human)	kinobead competition pulldown	HEK293/HCT116 lysate mixture	10 µM, 1 h, 4 °C	lower = stronger competition	log2 LFQ intensity	23.8 and 23.9
CC(C)[C@@H]1NC(=O)[C@H](Cc2ccccc2)NC(=O)CSC[C@@H](C(N)=O)NC(=O)[C@H](CCC(=O)O)NC(=O)[C@H](CO)NC(=O)[C@H](Cc2c[nH]c3cccc(Cl)c23)NC(=O)[C@H](C2CCCCC2)NC(=O)[C@H](C(C)C)NC(=O)[C@H](Cc2ccc(O)cc2)NC(=O)[C@H](CC(=O)O)NC(=O)[C@H](Cc2c[nH]c3ccccc23)NC(=O)[C@H](Cc2ccc(N)nc2)NC(=O)[C@H](Cc2c[nH]c3ccc(Cl)cc23)NC(=O)[C@H](CCC(=O)O)NC1=O	Interleukin-1 receptor-like 2 (IL1RL2, Homo sapiens, UniProt Q9HB29)	reporter gene (SEAP), inhibitor, HEK-Blue IL-36R reporter	HEK-Blue IL-36R cells	0.14 µM, 6 h, added: IL-36β 1 ng/mL		remaining activity	90.2%
C=CC(=O)N1CCCC(n2c(=O)c3ncccc3n(Cc3ccc(Oc4ccccc4)cc3)c2=O)C1 (stereo not drawn)	Septin-1 (SEPTIN1, Homo sapiens, UniProt Q8WYJ6)	thermal proteome profiling, item: SEPTIN1		unit not given	reference: vehicle	melting temperature shift	-4.49
COC(=O)Cc1cc2c(cc1C(=O)c1ccc(Cl)cc1Cl)OCO2	Gria1/Gria2	glutamate-evoked current, whole-cell patch clamp	HEK-293T	concentration not given, pH 7.4, holding potential -60 mV, added: 10 mM glutamate		current amplitude	212 ± 22 pA
CN(Cc1ccc(/C=C/C(=O)NO)cc1)CC12CC3CC(CC(C3)C1)C2	human A1 receptor	antagonist radioligand binding		0.05 µM		inhibition	5%
COC(=O)Cc1cc2c(cc1C(=O)c1cccc(Br)c1)OCO2	Gria1/Gria2	glutamate-evoked current, whole-cell patch clamp	HEK-293T	concentration not given, weighted tau, 500 ms pulse, added: glutamate		desensitization time constant	4.8 ± 0.3 ms
CCCCCc1ccc(Cc2cc(/C=C/C(=O)OC)cc3cccnc23)cc1	Glideosome-associated protein 50 (GAP50, Plasmodium falciparum, UniProt Q8I2X3)	surface plasmon resonance				kon	4590 M⁻¹ s⁻¹
COc1ccccc1C1(O)CCN(CCCCC2=C3C(C)=CC(C)=[N+]3[B-](F)(F)n3c(C)cc(C)c32)CC1	Sodium- and chloride-dependent glycine transporter 2	MS binding competition		10 µM		remaining specific binding	69.6 ± 6.1%
O=C1c2sc(-c3ccc(N4CCC(F)C4)nc3F)nc2CCN1c1cccnc1 (stereo not drawn)	TAR DNA-binding protein 43, aggregated (TARDBP, Homo sapiens, UniProt Q13148)	radioligand binding	human, FTLD-TDP type C sarkosyl-insoluble extract	200 nM		specific binding	0.899 nM and 1.03 nM and 1.22 nM
O=S(=O)(NCC(c1cccnc1)N1CCN(c2ccc(F)cc2)CC1)c1ccccc1 (stereo not drawn)	Trypanosoma cruzi	reporter mRNA translation, inhibitor, item: capped polyadenylated Renilla luciferase mRNA	cell-free extract	concentration not given	reference: control RNA	relative translation	109%
CC[C@H](C)[C@@H]1NC(=O)[C@H](Cc2ccccc2)NC(=O)[C@H](CCC(=O)O)NC(=O)[C@H](CCCNC(=N)N)NC(=O)CNC(=O)[C@@H](NC(=O)[C@H](CC(C)C)NC(=O)[C@H](CCCNC(=N)N)NC(=O)[C@@H](NC(=O)CNC(=O)[C@H](Cc2ccc(O)cc2)NC(=O)[C@@H]2CCCN2C(=O)[C@H](C)NC(=O)[C@H](C)NC(=O)[C@@H](N)CCCNC(=N)N)C(C)C)CSSC[C@@H]2NC(=O)[C@@H](NC(=O)[C@H](CO)NC(=O)[C@H](CO)NC(=O)[C@H](CO)NC(=O)[C@H](CC(C)C)NC(=O)CNC(=O)[C@H](C)NC(=O)[C@H](CC(C)C)NC(=O)[C@@H](NC(=O)[C@@H](N)CC(=O)O)C(C)C)CSSC[C@H](NC(=O)CNC(=O)[C@H](Cc3c[nH]c4ccccc34)NC(=O)[C@H](CCCCN)NC2=O)C(=O)N[C@@H](CO)C(=O)N[C@@H](CCCCN)C(=O)N[C@@H](CO)C(=O)N[C@@H](CCC(=O)O)C(=O)N[C@@H]([C@@H](C)CC)C(=O)N[C@@H](CO)C(=O)N[C@@H](CO)C(=O)N[C@@H](CC(C)C)C(=O)N[C@H](C(=O)O)CSSC[C@@H](C(=O)NCC(=O)NCC(=O)N[C@@H](CO)C(=O)N[C@@H](CCCNC(=N)N)C(=O)N[C@@H](Cc2c[nH]c3ccccc23)C(=O)O)NC(=O)[C@H]([C@@H](C)O)NC(=O)[C@H](Cc2ccccc2)NC(=O)[C@H]([C@@H](C)CC)NC(=O)[C@H](C(C)C)NC(=O)[C@H](C)NC(=O)[C@H](CCCNC(=N)N)NC1=O	RXFP3 (Homo sapiens, UniProt Q9NSD7, D145A)		HEK-293T		reference: wild type	Emax	25.7 ± 5.31%
O=C(O)Cc1cc2c(cc1C(=O)c1cccc(I)c1)OCO2	Gria1/Gria2	glutamate-evoked current, whole-cell patch clamp	HEK-293T	concentration not given		current amplitude	172 ± 16 pA
CCCCCCCCOP(=O)(Cc1ccccc1)O[C@@H]1O[C@H](CO)[C@@H](O)[C@H](O)[C@H]1F (stereo partly drawn)	GBA1 (Homo sapiens, UniProt P04062, L483P)	chaperone	MEF expressing GBA L444P	100 µM, three days, then 48 h washout	reference: untreated	relative activity	0.53
O[C@H]1[C@H](O)[C@@H](Cl)C=C[C@@H]1O	GBA1 (Homo sapiens, UniProt P04062)	covalent inhibitor		concentration not given, pH 5.2, 25 °C		reactivation rate	0.00021 ± 1e-05 s⁻¹
Cc1cc(-c2ccccc2)cc(C(=O)NNS(=O)(=O)c2ccccc2)c1F	KAT5 (Homo sapiens, UniProt Q92993)	SPR		0.023 µM	higher = more binding	SPR binding response	0.115 RU
C#CC[C@H](NC(=O)c1ccc(C(=O)c2ccccc2)cc1)C(=O)NCCCCCC(=O)N[C@@H](CCCCNC(=O)CSCCNC(=O)CCNC(=O)[C@H](O)C(C)(C)COP(=O)(O)OP(=O)(O)OC[C@H]1O[C@@H](n2cnc3c(N)ncnc32)[C@H](O)[C@@H]1OP(=O)(O)O)C(N)=O	EEF1A1 (Homo sapiens, UniProt P68104)	affinity enrichment LC-MS/MS	HEK293 cell extract, PCAF transfected		reference: 1 over empty vector	enrichment ratio	2.1
COc1cc(CN(C)CCc2ccccc2)ccc1OCc1ccccc1	Trypanosoma cruzi	reporter mRNA translation, inhibitor, item: capped polyadenylated Renilla luciferase mRNA	cell-free extract	concentration not given	reference: control RNA	relative translation	117%
CCCCCC(O)/C=C/C=O (stereo not drawn)	26S proteasome regulatory subunit 8 (Homo sapiens, UniProt P62195)	acylphosphate-ATP probe SILAC-ABPP, item: PSMC5	ZAK-transfected HEK293T	100 µM, added: acylphosphate-ATP probe	reference: DMSO over compound-treated	probe labelling ratio	0.67
